Measured values collected from several papers.
Lines come from different studies, so protocols differ. “And” joins repeats or separate records; there may be more than shown. ± gives the spread as reported. Converted amounts (≈) assume the structure as drawn.
Organism: Staphylococcus aureus

`CCCNC(=O)[C@H](Cc1ccc(O)cc1)NC(=O)[C@H](Cc1ccc(O)cc1)NC(=O)[C@H](NC(=O)[C@H](NC(=O)[C@H](CC(N)=O)NC(=O)[C@@H](Cc1ccc(O)cc1)NC(=O)[C@@H](CC(C)C)NC)c1ccccc1)c1ccc(O)cc1` has an IC50 of greater than 40 µM (bacterial growth).
With `CC(=O)N[C@@H](CC(C)C)C(=O)N[C@H]1CSSC[C@@H](C(=O)N2CCC[C@H]2C(N)=O)NC(=O)[C@H]([C@@H](C)O)NC(=O)[C@H](C(C)C)NC(=O)[C@H]([C@@H](C)O)NC(=O)CNC(=O)[C@H](CC(C)C)NC(=O)[C@H](Cc2ccccc2)NC(=O)[C@H](Cc2ccc(O)cc2)NC(=O)[C@H](CC(C)C)NC(=O)[C@H](CCCCN)NC(=O)[C@H](Cc2ccccc2)NC(=O)[C@H](CCCNC(=N)N)NC(=O)[C@H](CCC(N)=O)NC(=O)[C@H](CC(C)C)NC(=O)[C@H](CCCCN)NC(=O)[C@@H]2CCCN2C(=O)[C@H](CCCCN)NC(=O)[C@H](C(C)C)NC(=O)[C@H](CCCCN)NC(=O)[C@H](Cc2ccc(O)cc2)NC(=O)[C@H]([C@@H](C)O)NC1=O` the killed bacteria was 38.7% (2.5 µM, 2 h, 37 °C; baseline: untreated).
`CC(C)[C@H]1NC(=O)[C@H](Cc2ccccc2)NC(=O)[C@@H](C(C)C)NC(=O)[C@@H](C)NC(=O)[C@H](CO)NC(=O)[C@@H](Cc2c(-c3ccc(-c4cccc5ccccc45)cc3)[nH]c3ccccc23)NC(=O)[C@@H](CO)NC1=O` has an MIC90 of greater than 50 µM (broth dilution).
`CC1CCN(C(=O)c2cccc(NC(=O)Nc3ccc([N+](=O)[O-])cc3)c2)CC1`: “MIC fold reduction” greater than 16 (checkerboard; CRB, PBP4 overexpressor; 25 µM, with: ceftobiprole; baseline: ceftobiprole alone over combination).
With `CC[C@H](C)[C@H](NC(=O)[C@H](CC(C)C)NC(=O)[C@H](CC(=O)O)NC(=O)[C@H](CCCNC(=N)N)NC(=O)[C@H](Cc1c[nH]c2ccccc12)NC(=O)[C@@H](N)CC(C)C)C(=O)N[C@@H](CS)C(=O)N[C@@H](CC(C)C)C(=O)N[C@@H](CS)C(=O)N[C@@H](CCCNC(=N)N)C(=O)N[C@@H](CC(N)=O)C(=O)N[C@@H](CCCNC(=N)N)C(=O)N[C@@H](CCCNC(=N)N)C(=O)N[C@@H](CS)C(=O)N[C@@H](CC(N)=O)C(=O)N[C@@H](CCCNC(=N)N)C(=O)NCC(=O)N[C@@H](CCC(N)=O)C(=O)N[C@@H](CC(C)C)C(=O)N[C@@H](Cc1ccccc1)C(=O)N1CCC[C@H]1C(=O)NCC(=O)N[C@@H](Cc1c[nH]c2ccccc12)C(=O)N[C@@H](CS)C(=O)N1CCC[C@H]1C(=O)NCC(=O)N[C@@H](Cc1c[nH]c2ccccc12)C(=O)N[C@@H](Cc1c[nH]c2ccccc12)C(=O)N[C@@H](CC(C)C)C(=O)N[C@@H](CCCNC(=N)N)C(=O)N[C@@H](CS)C(=O)N[C@@H](CS)C(=O)N[C@@H](CCCNC(=N)N)C(=O)N[C@@H](CCCNC(=N)N)C(N)=O` the bactericidal rate was 96.3% (colony count; PBS; 20 µg/mL, 2 h).
Under “inhibition zone diameter”, `CC1COC2=C1C(=O)C(=O)c1c2ccc2c1C(OC(=O)CNC(=O)C(N)CCC(=O)O)CCC2(C)C` (mixture of isomers) is recorded as 23.7 ± 1 mm (10 µmol/mL, 48 h, 10 µL on 6 mm disc).
For `N=C(N)NCCC[C@H](NC(=O)[C@H](CCCNC(=N)N)NC(=O)[C@H](CCCNC(=N)N)NC(=O)[C@H](CCC(N)=O)NC(=O)[C@H](CCCNC(=N)N)NC(=O)[C@H](CCCNC(=N)N)NC(=O)[C@H](CCCCN)NC(=O)[C@H](CCCCN)NC(=O)[C@H](CCCNC(=N)N)NC(=O)CNC(=O)[C@H](Cc1ccc(O)cc1)NC(=O)[C@H](Cc1ccccc1)NC(=O)[C@H](Cc1ccccc1)NC(=O)[C@H](Cc1ccccc1)NC(=O)OCC1c2ccccc2-c2ccccc21)C(=O)O`, bacterial load read “decreased” (29213, C57BL/6 mouse peritonitis-sepsis, liver, kidney, spleen, lung; 10 mg/kg, 48 h; baseline: control).
With `CCC(=O)OCCSCCC(=O)N[C@H](CCN)C(=O)N[C@@H](CCN)C(=O)N[C@@H](CCN)C(=O)N[C@@H](CC(C)C)C(=O)N[C@H](Cc1ccccc1)C(=O)N[C@@H](CCN)C(=O)N[C@@H](CCN)C(=O)N[C@@H](CC(C)C)C(N)=O` the MBC was greater than 128 µM (ATCC 6538; 24 h, 37 °C).
With `CC[C@H](C)[C@@H]1NC(=O)[C@H](CO)NC(=O)C(C)(CCCCN)NC(=O)[C@@H]2CSSC[C@@H](C(=O)N[C@@H](Cc3ccc(O)cc3)C(N)=O)NC(=O)[C@H](CCCCN)NC(=O)[C@@H]3CSSC[C@H](NC(=O)[C@H](CCCNC(=N)N)NC(=O)C(C)(CC(C)C)NC(=O)[C@H](CC(=O)O)NC(=O)[C@H](CC(=O)O)NC(=O)[C@H](CCC(=O)O)NC(=O)[C@H](CC(N)=O)NC(=O)[C@H](Cc4c[nH]c5ccccc45)NC(=O)C(C)(CC)NC(=O)CNC(=O)[C@H](CC(N)=O)NC(=O)[C@@H](NC(=O)CNC(=O)[C@H](Cc4ccccc4)NC(=O)CN)CSSC[C@H](NC(=O)[C@H](Cc4ccc(O)cc4)NC(=O)CNC(=O)CNC(=O)[C@H](CCCCN)NC(=O)[C@H](Cc4ccc(O)cc4)NC(=O)[C@H]4CCCN4C(=O)[C@@H]4CCCN4C1=O)C(=O)N[C@@H](C)C(=O)N[C@@H](CCCCN)C(=O)N1CCC[C@@H]1C(=O)NCC(=O)N[C@@H](Cc1ccccc1)C(=O)N[C@@H](C(C)C)C(=O)N3)C(=O)N[C@@H](Cc1c[nH]cn1)C(=O)NC(C)(C)C(=O)N[C@@H](Cc1c[nH]cn1)C(=O)N2` (some centres unmarked) the MBC was 2 µM (≈ 8.92 µg/mL) (469; 24 h, 37 °C, 99.9% killing).
`Cc1ccc(CNC(=O)Cc2c(C)nc3ccc(C)cn23)cc1` has an inhibition zone of 0 mm (microbial growth; SG511; 2 mM, 20 h).
The MIC90 of `COc1ccc(-c2[nH]c3ccccc3c2C[C@H]2NC(=O)[C@@H](CO)NC(=O)[C@@H](C(C)C)NC(=O)[C@H](Cc3ccccc3)NC(=O)[C@@H](C(C)C)NC(=O)[C@@H](C)NC(=O)[C@H](CO)NC2=O)c(OC)c1` is reported as greater than 50 µM (broth dilution).
`CC[C@H](C)[C@@H]1NC(=O)[C@@H](CCCNC(=N)N)NC(=O)[C@@H](NC(=O)[C@@H](CC(C)C)NC(=O)[C@H](C)NC(=O)[C@H](C)NC(=O)[C@@H]2CCCN2C(=O)[C@@H](CC(C)C)NC(=O)[C@@H](NC(=O)[C@@H](CCCNC(=N)N)NC(=O)[C@@H](CC(C)C)NC(=O)[C@@H](CC(C)C)NC(=O)[C@@H](NC(=O)[C@@H](CCCNC(=N)N)NC(=O)[C@@H](CC(C)C)NC(=O)[C@@H](NC(=O)[C@@H](NC(=O)CNC(=O)[C@@H](CC(C)C)NC(=O)[C@@H](N)Cc2ccccc2)[C@@H](C)O)C(C)C)C(C)C)C(C)C)CSSC[C@@H](C(=O)O)NC(=O)[C@@H](CCCNC(=N)N)NC(=O)[C@@H](CCCNC(=N)N)NC(=O)[C@H](Cc2ccccc2)NC1=O` gave a survival rate of 20% (MRSA NCTC 12493, Galleria mellonella larvae; 16 mg/kg, planktonic infection).
The IC50 of `O[C@]12C=C(c3nccc4c3[nH]c3ccccc34)[C@@H]3CCN(CCCC/C=C\CC1)C[C@@]31C[C@@H]3/C=C\CCCCN3[C@H]12` is reported as 1.8 ± 0.03 µg/mL (growth; ATCC 43300, MRSA).
`CC[C@H](C)[C@H](NC(=O)[C@H](Cc1ccccc1)NC(=O)[C@H](CCCCN)NC(=O)[C@H](CCCCN)NC(=O)CNC(=O)[C@H](C)NC(=O)[C@H](CC(N)=O)NC(=O)[C@H](CCCCN)NC(=O)[C@H](Cc1ccccc1)NC(=O)[C@H](CC(N)=O)NC(=O)[C@H](CCC(=O)O)NC(=O)[C@H](Cc1c[nH]c2ccccc12)NC(=O)[C@H](CC(C)C)NC(=O)[C@@H](N)CO)C(=O)N[C@@H](CC(C)C)C(=O)N[C@@H](CC(N)=O)C(=O)N[C@H](C(=O)N[C@@H](CC(C)C)C(=O)N[C@@H](CC(=O)O)C(=O)N[C@@H](CCCCN)C(N)=O)[C@@H](C)CC`: “time to eradication” no more than 10 min (time-kill colony count; ATCC 6538; 2-4 x MIC).
Under “time to complete killing”, `CC(C)C[C@H](NC(=O)[C@H](CC(C)C)NC(=O)[C@H](CCCCN)NC(=O)[C@H](Cc1ccccc1)NC(=O)[C@@H](NC(=O)[C@H](CCCNC(=N)N)NC(=O)[C@@H](N)CCCCN)C(C)C)C(=O)N[C@@H](CCCCN)C(=O)N[C@@H](CCCNC(=N)N)C(=O)N[C@@H](Cc1ccc(O)cc1)C(=O)N[C@@H](Cc1c[nH]c2ccccc12)C(=O)N[C@@H](CCCNC(=N)N)C(=O)N[C@@H](CCC(N)=O)C(=O)N[C@@H](CC(C)C)C(=O)N[C@@H](CCCCN)C(=O)N[C@@H](CCCCN)C(=O)N1CCC[C@H]1C(=O)N[C@H](C(=O)N[C@@H](CCCNC(=N)N)C(=O)NCCOCCOCC(=O)O)C(C)C` is recorded as no more than 60 min (RPMI-1640 10% FBS; 2× MIC, 37 °C).
For `CCc1ccn2c(C(=O)N(C)C)c(C)nc2c1`, the inhibition zone was 0 mm (microbial growth; SG511; 2 mM, 20 h).
With `CC[C@H](C)[C@@H]1NC(=O)[C@H](CO)NC(=O)[C@H](CCCCN)NC(=O)[C@@H]2CSSC[C@@H](C(=O)N[C@@H](Cc3ccc(O)cc3)C(N)=O)NC(=O)[C@H](CCCCN)NC(=O)[C@@H]3CSSC[C@H](NC(=O)[C@H](CCCNC(=N)N)NC(=O)[C@H](CC(C)C)NC(=O)[C@H](CC(=O)O)NC(=O)[C@H](CC(=O)O)NC(=O)[C@H](CCC(=O)O)NC(=O)[C@H](CC(N)=O)NC(=O)[C@H](Cc4c[nH]c5ccccc45)NC(=O)[C@@H]4CCCN4C(=O)CNC(=O)[C@H](CC(N)=O)NC(=O)[C@@H](NC(=O)CNC(=O)[C@H](Cc4ccccc4)NC(=O)CN)CSSC[C@H](NC(=O)[C@H](Cc4ccc(O)cc4)NC(=O)CNC(=O)CNC(=O)[C@H](CCCCN)NC(=O)[C@H](Cc4ccc(O)cc4)NC(=O)CNC(=O)[C@H](CCCCN)NC1=O)C(=O)N[C@@H](C)C(=O)N[C@@H](CCCCN)C(=O)NCC(=O)NCC(=O)N[C@@H](Cc1ccccc1)C(=O)N[C@@H](C(C)C)C(=O)N3)C(=O)N[C@@H](Cc1c[nH]cn1)C(=O)N[C@@H](CC(N)=O)C(=O)N[C@@H](Cc1c[nH]cn1)C(=O)N2` the MBC was 0.5 µM (≈ 2.21 µg/mL) (469; 24 h, 37 °C, 99.9% killing).
The IC50 of `CCCNC(=O)[C@H](Cc1ccc(O)cc1)NC(=O)[C@H]1NC(=O)[C@@H](c2ccc(O)cc2)NC(=O)[C@H](NC(=O)[C@H](CC(N)=O)NC(=O)[C@@H](Cc2ccc(O)cc2)NC(=O)[C@@H](CC(C)C)NC)c2ccc(O)c(c2)Oc2ccc1cc2` is reported as greater than 40 µM (bacterial growth).
The growth of `OB(O)c1ccc(C(F)(F)F)s1` is reported as 61.4% and 65% and 83.3% and 79.3% and 80.5% and 91.6% (OD600; USA300 fphE::Tn transposon mutant; 5 µM; baseline: wild type).
The MIC50 of `COc1ccc2c(c1OC)C[NH+]1CCc3cc4c(cc3C1C2)OCO4.[Cl][Fe-]([Cl])([Cl])[Cl]` (centres unmarked) is reported as 899 µM (24 h, 37 °C).

A few entries again:
`CC(C)[C@H]1NC(=O)[C@H](Cc2ccccc2)NC(=O)[C@@H](C(C)C)NC(=O)[C@@H](C)NC(=O)[C@H](CO)NC(=O)[C@@H](Cc2c(-c3ccc(-c4cccc5ccccc45)cc3)[nH]c3ccccc23)NC(=O)[C@@H](CO)NC1=O` has an MIC90 of greater than 50 µM (broth dilution).
